Measurements collected from several papers.
Parts stem from different laboratories: compare values within a part only.
Sequence of UniProt P45985 (whole entry, looked up): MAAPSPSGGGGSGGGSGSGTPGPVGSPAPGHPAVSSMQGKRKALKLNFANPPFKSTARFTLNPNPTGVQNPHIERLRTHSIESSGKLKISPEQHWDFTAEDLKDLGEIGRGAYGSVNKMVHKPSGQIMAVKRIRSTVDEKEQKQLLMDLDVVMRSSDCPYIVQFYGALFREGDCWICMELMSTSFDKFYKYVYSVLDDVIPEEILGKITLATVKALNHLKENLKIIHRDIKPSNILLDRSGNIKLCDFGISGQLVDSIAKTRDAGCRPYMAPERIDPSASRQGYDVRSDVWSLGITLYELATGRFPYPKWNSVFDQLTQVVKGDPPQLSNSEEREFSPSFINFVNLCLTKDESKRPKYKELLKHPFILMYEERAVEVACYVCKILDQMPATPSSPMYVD
Sequence of UniProt P11802 (whole entry, looked up): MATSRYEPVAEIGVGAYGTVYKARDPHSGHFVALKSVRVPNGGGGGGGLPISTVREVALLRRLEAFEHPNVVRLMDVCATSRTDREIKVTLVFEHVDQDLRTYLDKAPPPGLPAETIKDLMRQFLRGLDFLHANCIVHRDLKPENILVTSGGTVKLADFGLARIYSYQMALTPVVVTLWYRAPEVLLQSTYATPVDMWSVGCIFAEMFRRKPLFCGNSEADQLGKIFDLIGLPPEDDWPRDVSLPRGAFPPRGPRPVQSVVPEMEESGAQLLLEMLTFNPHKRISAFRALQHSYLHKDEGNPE
Sequence of UniProt P22607 (whole entry, looked up): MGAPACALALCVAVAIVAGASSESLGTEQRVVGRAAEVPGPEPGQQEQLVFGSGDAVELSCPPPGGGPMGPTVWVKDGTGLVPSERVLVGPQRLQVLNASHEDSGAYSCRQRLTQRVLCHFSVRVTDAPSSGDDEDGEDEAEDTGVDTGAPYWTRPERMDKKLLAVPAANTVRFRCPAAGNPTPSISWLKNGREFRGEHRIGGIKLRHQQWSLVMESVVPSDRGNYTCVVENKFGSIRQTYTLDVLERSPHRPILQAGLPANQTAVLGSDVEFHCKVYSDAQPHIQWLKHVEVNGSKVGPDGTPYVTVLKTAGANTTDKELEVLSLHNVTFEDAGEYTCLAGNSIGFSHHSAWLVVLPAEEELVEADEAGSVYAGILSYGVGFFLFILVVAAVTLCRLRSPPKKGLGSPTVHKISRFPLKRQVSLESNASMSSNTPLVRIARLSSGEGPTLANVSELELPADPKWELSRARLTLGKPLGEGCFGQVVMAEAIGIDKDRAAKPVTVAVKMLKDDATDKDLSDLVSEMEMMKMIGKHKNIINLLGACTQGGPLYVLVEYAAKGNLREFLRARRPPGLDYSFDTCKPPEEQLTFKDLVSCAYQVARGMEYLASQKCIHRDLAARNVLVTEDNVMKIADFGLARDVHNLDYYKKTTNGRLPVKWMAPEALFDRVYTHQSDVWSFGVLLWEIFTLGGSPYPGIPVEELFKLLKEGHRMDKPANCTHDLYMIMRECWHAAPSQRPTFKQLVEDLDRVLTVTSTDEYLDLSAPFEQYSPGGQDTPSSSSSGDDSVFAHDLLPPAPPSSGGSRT
Sequence of UniProt Q96PY6 (whole entry, looked up): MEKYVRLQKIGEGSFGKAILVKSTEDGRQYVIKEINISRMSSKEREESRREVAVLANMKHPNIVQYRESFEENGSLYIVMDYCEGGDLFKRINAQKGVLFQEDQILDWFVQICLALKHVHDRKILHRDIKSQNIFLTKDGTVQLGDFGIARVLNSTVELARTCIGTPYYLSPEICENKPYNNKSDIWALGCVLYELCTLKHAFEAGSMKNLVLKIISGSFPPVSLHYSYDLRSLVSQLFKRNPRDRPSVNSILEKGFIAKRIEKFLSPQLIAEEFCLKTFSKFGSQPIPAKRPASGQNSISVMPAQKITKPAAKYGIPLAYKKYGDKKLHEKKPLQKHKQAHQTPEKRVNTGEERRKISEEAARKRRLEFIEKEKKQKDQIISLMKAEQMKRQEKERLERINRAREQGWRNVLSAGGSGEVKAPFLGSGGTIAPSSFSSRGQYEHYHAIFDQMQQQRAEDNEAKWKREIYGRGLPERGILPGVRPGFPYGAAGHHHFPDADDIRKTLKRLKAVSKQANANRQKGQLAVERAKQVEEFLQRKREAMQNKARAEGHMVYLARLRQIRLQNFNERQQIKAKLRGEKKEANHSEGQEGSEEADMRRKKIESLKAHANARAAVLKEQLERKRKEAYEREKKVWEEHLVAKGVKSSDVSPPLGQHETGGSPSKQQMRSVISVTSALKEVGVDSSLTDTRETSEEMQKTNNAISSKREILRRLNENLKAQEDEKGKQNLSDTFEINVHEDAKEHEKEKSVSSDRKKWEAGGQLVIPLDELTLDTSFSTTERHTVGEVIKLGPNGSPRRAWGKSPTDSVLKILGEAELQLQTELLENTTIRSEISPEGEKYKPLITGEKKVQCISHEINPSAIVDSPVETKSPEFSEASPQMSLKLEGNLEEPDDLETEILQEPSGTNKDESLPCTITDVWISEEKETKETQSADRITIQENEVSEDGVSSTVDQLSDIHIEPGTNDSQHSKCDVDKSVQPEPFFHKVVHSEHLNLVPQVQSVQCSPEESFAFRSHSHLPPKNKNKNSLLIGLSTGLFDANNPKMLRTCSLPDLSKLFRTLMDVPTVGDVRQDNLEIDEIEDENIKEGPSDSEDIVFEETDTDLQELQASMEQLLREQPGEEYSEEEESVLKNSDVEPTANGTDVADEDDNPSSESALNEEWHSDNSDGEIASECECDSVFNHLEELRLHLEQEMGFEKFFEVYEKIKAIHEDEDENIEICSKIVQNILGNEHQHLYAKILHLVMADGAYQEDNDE
Sequence of UniProt P31749 (whole entry, looked up): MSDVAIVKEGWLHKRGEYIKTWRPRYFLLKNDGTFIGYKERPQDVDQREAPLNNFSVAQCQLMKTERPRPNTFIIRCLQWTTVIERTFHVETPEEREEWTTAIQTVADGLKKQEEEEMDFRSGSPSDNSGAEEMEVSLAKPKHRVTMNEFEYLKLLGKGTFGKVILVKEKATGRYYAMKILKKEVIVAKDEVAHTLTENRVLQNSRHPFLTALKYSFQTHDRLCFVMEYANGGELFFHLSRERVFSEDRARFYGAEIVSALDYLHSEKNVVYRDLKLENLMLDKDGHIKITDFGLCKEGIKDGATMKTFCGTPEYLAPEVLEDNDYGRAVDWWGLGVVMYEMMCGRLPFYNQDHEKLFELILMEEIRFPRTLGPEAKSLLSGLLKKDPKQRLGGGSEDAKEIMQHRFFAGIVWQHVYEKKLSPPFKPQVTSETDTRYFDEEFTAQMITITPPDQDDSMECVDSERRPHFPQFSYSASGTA
Sequence of UniProt Q05655 (whole entry, looked up): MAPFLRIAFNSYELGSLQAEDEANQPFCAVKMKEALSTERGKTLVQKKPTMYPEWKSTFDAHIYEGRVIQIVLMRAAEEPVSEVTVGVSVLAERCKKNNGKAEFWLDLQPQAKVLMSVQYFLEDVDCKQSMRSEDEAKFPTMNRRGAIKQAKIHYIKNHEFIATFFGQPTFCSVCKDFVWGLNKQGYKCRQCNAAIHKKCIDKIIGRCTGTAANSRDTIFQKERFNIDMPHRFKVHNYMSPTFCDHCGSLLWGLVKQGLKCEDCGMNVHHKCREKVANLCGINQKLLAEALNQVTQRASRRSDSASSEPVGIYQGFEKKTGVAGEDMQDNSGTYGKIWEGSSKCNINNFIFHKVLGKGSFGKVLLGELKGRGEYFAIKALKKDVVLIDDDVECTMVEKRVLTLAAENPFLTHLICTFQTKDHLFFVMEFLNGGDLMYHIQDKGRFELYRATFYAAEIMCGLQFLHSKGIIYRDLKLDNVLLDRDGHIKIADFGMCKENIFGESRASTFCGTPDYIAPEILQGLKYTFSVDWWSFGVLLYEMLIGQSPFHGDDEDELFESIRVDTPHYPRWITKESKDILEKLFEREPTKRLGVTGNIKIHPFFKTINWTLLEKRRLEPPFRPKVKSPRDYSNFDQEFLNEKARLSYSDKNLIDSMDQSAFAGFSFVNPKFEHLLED
Sequence of UniProt Q02763 (whole entry, looked up): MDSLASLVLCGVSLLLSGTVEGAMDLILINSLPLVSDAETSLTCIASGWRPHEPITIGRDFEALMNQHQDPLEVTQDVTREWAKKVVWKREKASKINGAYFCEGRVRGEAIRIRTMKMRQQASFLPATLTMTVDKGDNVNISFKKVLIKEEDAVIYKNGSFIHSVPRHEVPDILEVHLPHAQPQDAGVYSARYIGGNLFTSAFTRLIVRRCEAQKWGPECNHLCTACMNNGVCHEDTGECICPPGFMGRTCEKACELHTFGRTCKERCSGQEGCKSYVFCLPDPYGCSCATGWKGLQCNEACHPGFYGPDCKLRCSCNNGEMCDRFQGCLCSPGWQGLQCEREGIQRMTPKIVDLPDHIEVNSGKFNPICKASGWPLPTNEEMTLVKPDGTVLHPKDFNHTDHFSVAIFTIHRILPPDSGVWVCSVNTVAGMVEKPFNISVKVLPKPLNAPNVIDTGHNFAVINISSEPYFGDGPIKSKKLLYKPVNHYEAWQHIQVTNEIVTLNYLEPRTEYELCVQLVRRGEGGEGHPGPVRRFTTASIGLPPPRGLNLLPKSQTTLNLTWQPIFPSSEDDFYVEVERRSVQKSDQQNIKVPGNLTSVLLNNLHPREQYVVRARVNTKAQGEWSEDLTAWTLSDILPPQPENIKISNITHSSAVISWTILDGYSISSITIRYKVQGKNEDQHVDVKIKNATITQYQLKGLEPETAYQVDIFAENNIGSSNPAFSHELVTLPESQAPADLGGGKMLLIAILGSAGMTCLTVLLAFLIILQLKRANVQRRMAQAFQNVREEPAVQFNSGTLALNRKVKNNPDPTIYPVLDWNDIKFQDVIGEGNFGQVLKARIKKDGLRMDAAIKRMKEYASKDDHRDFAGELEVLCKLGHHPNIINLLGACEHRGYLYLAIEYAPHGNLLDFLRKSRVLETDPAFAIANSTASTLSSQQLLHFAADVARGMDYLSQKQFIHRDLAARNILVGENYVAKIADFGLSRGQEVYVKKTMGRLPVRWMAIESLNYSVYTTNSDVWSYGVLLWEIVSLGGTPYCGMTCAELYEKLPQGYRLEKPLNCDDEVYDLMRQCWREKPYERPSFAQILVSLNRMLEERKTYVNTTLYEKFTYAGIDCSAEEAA

Set 1
Compound: COc1ccc2c(c1)O[C@H](c1ccc(OC)c(OC)c1)C[C@@H]2NC(=O)C1(c2ccc3c(c2)OC(F)(F)O3)CC1
Effect on: cell-free assay
Method: competition with immobilised ligand
Tested at: 1 µM
It gave 100% for remaining binding (NEK1 (Homo sapiens, UniProt Q96PY6)).
The remaining binding was 98% (TLK2 (Homo sapiens, UniProt Q86UE8)).
It gave 100% for remaining binding (PRKCD (Homo sapiens, UniProt Q05655)).
The remaining binding was 100% (MAP2K4 (Homo sapiens, UniProt P45985)).
For MET (Homo sapiens, UniProt P08581): remaining binding read 87%.
EGFR (Homo sapiens, UniProt P00533, del752-759) — remaining binding: 100%.
For Cyclin-dependent kinase 4, with cyclin D3 (CDK4, Homo sapiens, UniProt P11802): remaining binding read 100%.
PIK3CA (Homo sapiens, UniProt P42336, E542K) — remaining binding: 95%.
FGFR3 (Homo sapiens, UniProt P22607) — remaining binding: 100%.
It gave 63% for remaining binding (AKT1 (Homo sapiens, UniProt P31749)).
It gave 70% for remaining binding (TEK (Homo sapiens, UniProt Q02763)).

Set 2
Target: Histone acetyltransferase KAT6A, both winged helices, GST fusion (KAT6A, Homo sapiens, UniProt Q92794, residues 1-181)
Method: protein binding microarray
Form: double-stranded DNA, one strand shown
Sample: in vitro
Tested at: not given
Notes: 8-mer, flanks averaged, mean of 2 arrays, mostly near background
Reference: not given
Reading: higher = stronger binding
Residues (chain): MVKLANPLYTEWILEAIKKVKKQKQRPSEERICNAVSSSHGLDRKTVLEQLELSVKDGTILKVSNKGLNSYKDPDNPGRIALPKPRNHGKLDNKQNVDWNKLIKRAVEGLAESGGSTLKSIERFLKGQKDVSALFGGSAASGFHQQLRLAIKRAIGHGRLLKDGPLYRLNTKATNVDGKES
With `CTGGTTGC` the E-score was 0.00074.
For `CACGCTCG`, the E-score was 0.0743.
The E-score of `CCCTATCG` is reported as -0.0294.
`GACTAAAC` has an E-score of -0.00445.
`GAGAAAGA` gave an E-score of -0.18.
The E-score of `CAAACCCG` is reported as 0.221.
The E-score of `ACATAAAT` is reported as -0.0644.
The E-score of `AATTGCAT` is reported as -0.105.

Set 3
Target: Sal-like protein 4, full length isoform B (SALL4, Homo sapiens, UniProt Q9UJQ4-2, residues 1-616)
Method: universal PBM
Form: double-stranded DNA, one strand shown
Sample: in vitro
Tested at: not given
Notes: 8-mer, flanks averaged, mean of replicates
Reading: higher = stronger binding
The E-score of `TGGGGTAA` is reported as -0.0791.
The E-score of `GCTTGACC` is reported as -0.207.
`ATGCGCCC` has an E-score of -0.236.
The E-score of `AGGTGTTA` is reported as 0.0962.
The E-score of `CACCGTCG` is reported as -0.233.
`AGCTACCC` gave an E-score of -0.116.
With `AGGTTGGG` the E-score was -0.165.
`AGTATGCA` has an E-score of 0.121.

Set 4
Target: Muscle, skeletal receptor tyrosine-protein kinase (MUSK, Homo sapiens, UniProt O15146)
Effect on: enzyme activity
Mode: inhibitor
Tested at: 0.5 µM
Reference: control
Residues (O15146 1-869): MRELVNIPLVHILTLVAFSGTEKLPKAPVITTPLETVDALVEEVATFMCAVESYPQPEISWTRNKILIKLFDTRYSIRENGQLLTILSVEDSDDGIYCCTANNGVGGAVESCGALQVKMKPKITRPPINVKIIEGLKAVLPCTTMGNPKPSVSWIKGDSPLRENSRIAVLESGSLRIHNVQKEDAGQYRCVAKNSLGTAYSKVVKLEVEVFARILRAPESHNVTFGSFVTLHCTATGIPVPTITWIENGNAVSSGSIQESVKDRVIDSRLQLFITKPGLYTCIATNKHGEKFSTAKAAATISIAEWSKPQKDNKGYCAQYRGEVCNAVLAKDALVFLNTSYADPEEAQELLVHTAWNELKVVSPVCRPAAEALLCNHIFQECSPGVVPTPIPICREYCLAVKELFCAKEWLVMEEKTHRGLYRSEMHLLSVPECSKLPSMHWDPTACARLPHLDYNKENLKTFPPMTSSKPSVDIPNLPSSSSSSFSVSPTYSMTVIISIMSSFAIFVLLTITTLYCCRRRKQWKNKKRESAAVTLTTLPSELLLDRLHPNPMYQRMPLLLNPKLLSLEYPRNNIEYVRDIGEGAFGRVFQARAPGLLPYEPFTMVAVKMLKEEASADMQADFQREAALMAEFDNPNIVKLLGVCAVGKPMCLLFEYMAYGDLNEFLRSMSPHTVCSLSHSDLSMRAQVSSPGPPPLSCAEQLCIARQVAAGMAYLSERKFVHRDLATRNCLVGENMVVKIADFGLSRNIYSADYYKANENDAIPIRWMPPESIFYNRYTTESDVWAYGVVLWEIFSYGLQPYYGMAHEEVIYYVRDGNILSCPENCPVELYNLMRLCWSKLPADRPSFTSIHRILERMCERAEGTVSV
`CC(C)[C@H](CO)Nc1nc(Nc2cc(N)cc(Cl)c2)c2ncn(C(C)C)c2n1` gave a remaining activity of 46%.
`CN(C)c1ccc(C=C2C(=O)Nc3ccccc32)cc1` gave a remaining activity of 96.4%.
With `O=c1c2ccccc2[nH]c(=S)n1CCN1CCC(=C(c2ccc(F)cc2)c2ccc(F)cc2)CC1` the remaining activity was 93.6%.
The remaining activity of `COc1cc2ncnc(Nc3ccc(Oc4ccccc4)cc3)c2cc1OC` is reported as 89.8%.
For `COc1cc2nccc(Oc3ccc(NC(=S)NC(=O)c4ccccc4C)cc3)c2cc1OC`, the remaining activity was 95.9%.
With `C#Cc1cccc(Nc2ncnc3cc(OCCOC)c(OCCOC)cc23)c1` the remaining activity was 94.6%.
`CCOC(=O)c1c(C)[nH]c(/C=C2\C(=O)Nc3ccccc32)c1C` gave a remaining activity of 88.7%.
The remaining activity of `OCC(O)CCON=C1C(c2c(O)[nH]c3ccccc23)=Nc2ccccc21` (stereo not shown) is reported as 58%.
For `O=C1NC(=O)C(c2cn(CCCn3ccnc3)c3ccccc23)=C1Nc1ccccc1`, the remaining activity was 51.6%.
`Cn1sc(=O)n(Cc2ccccc2)c1=O` has a remaining activity of 103%.
For `O=C(O)c1ccc2c3c1cccc3c(=O)n1c3ccccc3nc21`, the remaining activity was 47.1%.
With `COc1ccc(C(=O)Nc2sc3c(c2C(N)=O)CCCC3)cc1OC` the remaining activity was 79.4%.
`Nc1[nH]nc2nc3ccccc3nc12` gave a remaining activity of 82.6%.

For quick reference, copied from above (set 4):
`CC(C)[C@H](CO)Nc1nc(Nc2cc(N)cc(Cl)c2)c2ncn(C(C)C)c2n1` gave a remaining activity of 46%.
`CN(C)c1ccc(C=C2C(=O)Nc3ccccc32)cc1` gave a remaining activity of 96.4%.
With `O=c1c2ccccc2[nH]c(=S)n1CCN1CCC(=C(c2ccc(F)cc2)c2ccc(F)cc2)CC1` the remaining activity was 93.6%.
The remaining activity of `COc1cc2ncnc(Nc3ccc(Oc4ccccc4)cc3)c2cc1OC` is reported as 89.8%.
For `COc1cc2nccc(Oc3ccc(NC(=S)NC(=O)c4ccccc4C)cc3)c2cc1OC`, the remaining activity was 95.9%.
With `C#Cc1cccc(Nc2ncnc3cc(OCCOC)c(OCCOC)cc23)c1` the remaining activity was 94.6%.
